Experimental data of several laboratories.
Each numbered part is a random draw from the data of one study; scales do not carry over between parts.
Chain of UniProt Q09013 (whole entry, looked up): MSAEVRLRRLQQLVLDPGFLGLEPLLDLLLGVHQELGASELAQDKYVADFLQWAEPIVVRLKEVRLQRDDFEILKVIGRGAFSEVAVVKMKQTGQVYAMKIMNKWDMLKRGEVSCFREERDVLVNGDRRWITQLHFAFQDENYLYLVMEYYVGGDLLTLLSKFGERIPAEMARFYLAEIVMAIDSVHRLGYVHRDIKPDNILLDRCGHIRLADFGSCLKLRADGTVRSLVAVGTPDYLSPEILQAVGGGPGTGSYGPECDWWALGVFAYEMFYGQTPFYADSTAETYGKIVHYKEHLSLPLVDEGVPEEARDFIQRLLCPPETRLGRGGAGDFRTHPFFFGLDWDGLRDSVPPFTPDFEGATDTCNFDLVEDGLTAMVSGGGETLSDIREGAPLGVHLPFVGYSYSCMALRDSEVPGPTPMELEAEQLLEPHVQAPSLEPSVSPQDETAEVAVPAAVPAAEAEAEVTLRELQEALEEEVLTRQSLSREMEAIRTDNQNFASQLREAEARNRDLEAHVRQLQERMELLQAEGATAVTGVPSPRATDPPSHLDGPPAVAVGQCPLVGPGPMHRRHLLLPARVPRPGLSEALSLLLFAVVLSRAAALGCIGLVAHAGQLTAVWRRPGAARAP
Chain of UniProt Q15139 (whole entry, looked up): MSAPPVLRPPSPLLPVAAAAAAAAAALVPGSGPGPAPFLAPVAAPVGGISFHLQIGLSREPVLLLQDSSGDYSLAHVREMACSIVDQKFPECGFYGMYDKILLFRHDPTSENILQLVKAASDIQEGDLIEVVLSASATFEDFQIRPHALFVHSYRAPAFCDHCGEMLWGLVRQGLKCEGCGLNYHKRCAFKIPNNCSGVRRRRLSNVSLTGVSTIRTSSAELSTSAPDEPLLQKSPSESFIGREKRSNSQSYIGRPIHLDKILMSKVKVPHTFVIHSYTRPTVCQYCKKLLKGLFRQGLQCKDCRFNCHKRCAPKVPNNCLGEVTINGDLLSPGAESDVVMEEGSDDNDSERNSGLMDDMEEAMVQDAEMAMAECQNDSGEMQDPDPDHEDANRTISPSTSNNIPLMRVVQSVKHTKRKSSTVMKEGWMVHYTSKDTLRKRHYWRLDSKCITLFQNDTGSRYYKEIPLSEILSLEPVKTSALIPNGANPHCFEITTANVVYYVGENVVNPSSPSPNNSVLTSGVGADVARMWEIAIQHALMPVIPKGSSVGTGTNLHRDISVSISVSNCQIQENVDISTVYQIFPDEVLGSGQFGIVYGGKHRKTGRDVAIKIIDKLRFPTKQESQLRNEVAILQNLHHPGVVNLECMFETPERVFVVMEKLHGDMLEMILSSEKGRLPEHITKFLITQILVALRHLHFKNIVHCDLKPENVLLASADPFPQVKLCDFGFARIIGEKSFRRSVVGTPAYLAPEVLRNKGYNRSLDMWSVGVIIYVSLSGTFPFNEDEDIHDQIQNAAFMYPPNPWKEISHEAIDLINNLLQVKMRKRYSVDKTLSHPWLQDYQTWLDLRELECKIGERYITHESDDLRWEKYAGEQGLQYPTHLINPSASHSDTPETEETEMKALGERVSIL
Chain of UniProt Q8TD19 (whole entry, looked up): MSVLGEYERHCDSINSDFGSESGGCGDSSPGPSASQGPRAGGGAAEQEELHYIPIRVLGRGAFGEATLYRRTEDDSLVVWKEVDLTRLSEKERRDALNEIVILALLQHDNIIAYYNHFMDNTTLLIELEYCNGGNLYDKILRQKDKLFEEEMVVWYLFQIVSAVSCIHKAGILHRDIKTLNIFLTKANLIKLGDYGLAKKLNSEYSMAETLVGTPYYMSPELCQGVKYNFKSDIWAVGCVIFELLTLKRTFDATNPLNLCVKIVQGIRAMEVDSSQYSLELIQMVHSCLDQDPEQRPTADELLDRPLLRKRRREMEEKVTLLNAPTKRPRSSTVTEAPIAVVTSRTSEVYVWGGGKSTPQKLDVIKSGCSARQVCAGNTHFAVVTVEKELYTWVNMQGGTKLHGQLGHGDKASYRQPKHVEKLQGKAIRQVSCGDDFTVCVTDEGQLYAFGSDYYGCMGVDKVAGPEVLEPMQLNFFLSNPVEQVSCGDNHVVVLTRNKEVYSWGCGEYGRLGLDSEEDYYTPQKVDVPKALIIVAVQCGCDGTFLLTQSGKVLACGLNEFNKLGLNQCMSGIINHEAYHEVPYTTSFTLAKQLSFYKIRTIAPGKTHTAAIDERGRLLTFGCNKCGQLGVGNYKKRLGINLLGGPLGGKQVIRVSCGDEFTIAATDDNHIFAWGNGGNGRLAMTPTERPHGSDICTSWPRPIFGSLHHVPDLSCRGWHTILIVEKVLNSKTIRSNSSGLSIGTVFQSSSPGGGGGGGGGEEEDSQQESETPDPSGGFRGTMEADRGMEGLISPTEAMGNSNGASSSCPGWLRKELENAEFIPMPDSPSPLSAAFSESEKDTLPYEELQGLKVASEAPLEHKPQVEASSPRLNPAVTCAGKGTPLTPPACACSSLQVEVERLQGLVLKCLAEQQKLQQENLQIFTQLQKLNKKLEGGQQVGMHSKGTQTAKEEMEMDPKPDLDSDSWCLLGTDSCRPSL
Chain of UniProt Q16288 (whole entry, looked up): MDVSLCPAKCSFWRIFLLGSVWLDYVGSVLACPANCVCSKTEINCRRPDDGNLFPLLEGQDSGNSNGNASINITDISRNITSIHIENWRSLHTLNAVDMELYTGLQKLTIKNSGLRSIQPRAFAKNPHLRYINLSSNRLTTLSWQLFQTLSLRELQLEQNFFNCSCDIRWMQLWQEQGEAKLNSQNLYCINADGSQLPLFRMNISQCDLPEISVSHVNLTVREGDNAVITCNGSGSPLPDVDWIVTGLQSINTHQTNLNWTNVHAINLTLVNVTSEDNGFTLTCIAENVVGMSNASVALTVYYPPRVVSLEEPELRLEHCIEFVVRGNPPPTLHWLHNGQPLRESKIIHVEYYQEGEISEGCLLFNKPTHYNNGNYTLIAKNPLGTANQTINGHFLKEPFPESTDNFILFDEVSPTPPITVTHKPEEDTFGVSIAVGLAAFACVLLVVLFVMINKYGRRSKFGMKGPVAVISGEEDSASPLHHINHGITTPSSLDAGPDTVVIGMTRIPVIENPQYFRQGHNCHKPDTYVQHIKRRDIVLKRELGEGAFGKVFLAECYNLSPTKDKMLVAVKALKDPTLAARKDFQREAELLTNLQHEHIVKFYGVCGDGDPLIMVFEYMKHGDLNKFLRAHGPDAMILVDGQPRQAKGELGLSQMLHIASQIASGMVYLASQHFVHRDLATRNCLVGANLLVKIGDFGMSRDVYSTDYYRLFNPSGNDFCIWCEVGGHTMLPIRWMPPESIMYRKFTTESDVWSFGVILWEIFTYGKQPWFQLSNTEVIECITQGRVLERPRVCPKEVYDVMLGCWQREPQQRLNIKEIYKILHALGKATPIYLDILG
Chain of UniProt P34947 (whole entry, looked up): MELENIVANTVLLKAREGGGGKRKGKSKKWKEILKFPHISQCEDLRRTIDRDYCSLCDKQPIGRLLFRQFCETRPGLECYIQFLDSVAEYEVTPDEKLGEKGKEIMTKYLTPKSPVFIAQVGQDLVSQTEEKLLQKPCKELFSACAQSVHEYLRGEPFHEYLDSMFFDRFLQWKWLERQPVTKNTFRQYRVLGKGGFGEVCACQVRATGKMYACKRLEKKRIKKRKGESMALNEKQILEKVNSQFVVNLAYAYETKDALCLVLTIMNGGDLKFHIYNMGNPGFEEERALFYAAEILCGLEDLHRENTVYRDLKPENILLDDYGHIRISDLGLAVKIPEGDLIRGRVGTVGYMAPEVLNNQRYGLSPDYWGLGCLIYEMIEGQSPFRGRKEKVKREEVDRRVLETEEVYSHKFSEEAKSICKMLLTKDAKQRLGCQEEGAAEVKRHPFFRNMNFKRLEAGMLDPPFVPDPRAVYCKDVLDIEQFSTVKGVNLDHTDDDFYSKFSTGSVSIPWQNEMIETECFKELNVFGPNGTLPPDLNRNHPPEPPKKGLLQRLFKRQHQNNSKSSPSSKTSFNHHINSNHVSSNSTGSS
Chain of UniProt P19784 (whole entry, looked up): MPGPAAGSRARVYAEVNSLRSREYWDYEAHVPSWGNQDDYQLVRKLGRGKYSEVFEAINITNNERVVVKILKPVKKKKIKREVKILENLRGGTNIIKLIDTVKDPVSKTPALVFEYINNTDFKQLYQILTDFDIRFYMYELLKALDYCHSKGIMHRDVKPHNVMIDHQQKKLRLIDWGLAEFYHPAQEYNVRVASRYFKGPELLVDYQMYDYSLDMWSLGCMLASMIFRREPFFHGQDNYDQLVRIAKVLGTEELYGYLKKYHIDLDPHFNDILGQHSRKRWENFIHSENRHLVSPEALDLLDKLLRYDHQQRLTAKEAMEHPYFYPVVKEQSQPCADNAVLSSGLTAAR
Chain of UniProt P53779 (whole entry, looked up): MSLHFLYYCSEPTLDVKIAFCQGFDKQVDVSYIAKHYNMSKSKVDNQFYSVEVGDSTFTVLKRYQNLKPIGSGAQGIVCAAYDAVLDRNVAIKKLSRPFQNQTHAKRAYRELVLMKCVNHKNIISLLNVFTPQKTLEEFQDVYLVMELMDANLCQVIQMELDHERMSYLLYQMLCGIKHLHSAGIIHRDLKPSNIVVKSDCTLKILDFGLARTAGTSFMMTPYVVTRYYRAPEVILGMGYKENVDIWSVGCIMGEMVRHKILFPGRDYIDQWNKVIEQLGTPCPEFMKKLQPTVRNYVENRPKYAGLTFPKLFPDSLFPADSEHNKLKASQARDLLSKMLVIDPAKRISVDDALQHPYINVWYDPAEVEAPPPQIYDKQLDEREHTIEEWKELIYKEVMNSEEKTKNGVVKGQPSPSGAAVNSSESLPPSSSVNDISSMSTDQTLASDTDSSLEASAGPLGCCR

Set 1
Cell line: HEK-293T/ACE2
Concentration: concentration not given
Time: 16 (unit not given)
Relative to: vehicle
| SMILES | viability [%] |
| --- | --- |
| CC(C)c1ccc2oc3nc(N)c(C(=O)O)cc3c(=O)c2c1 | 99.4 |
| CCC(=O)O[C@]1(C(=O)SCF)[C@H](C)C[C@H]2[C@@H]3C[C@H](F)C4=CC(=O)C=C[C@]4(C)[C@@]3(F)[C@@H](O)C[C@@]21C | 105 |
| CCCCN1CCCC[C@H]1C(=O)Nc1c(C)cccc1C | 101 |
| CC(=O)OCC[N+](C)(C)C | 98.2 |
| CCCCCCCCCCCCCCCCOP(=O)([O-])OCC[N+](C)(C)C | 99.6 |
| CC(C)(C)NC[C@H](O)COc1nsnc1N1CCOCC1 | 101 |
| c1ccc2c(CC3=NCCN3)cccc2c1 | 98 |
| CCCCC(=O)O[C@H]1CC[C@H]2[C@@H]3CCc4cc(O)ccc4[C@H]3CC[C@]12C | 103 |
| CC(C(=O)O)c1ccc(-c2ccccc2)c(F)c1 (stereo not shown) | 101 |
| O=C1CN2Cc3c(ccc(Cl)c3Cl)N=C2N1 | 103 |
| CC(C)C[C@H](CN)CC(=O)O | 101 |
| C[C@]12CC[C@@H]3c4ccc(OC(=O)c5ccccc5)cc4CC[C@H]3[C@@H]1CC[C@@H]2O | 101 |
| CCOC(=O)[C@H](CCc1ccccc1)N[C@@H](C)C(=O)N1CCC[C@H]1C(=O)O | 94.8 |
| CCOC(=O)CCC(=O)O[C@H]1[C@H](O[C@@H]2[C@@H](C)[C@H](O[C@H]3C[C@@](C)(OC)[C@@H](O)[C@H](C)O3)[C@@H](C)C(=O)O[C@H](CC)[C@@](C)(O)[C@H](O)[C@@H](C)C(=O)[C@H](C)C[C@@]2(C)O)O[C@H](C)C[C@@H]1N(C)C | 101 |

Set 2
Molecule: AAAVRKPIVLKR
Technique: competitive growth deep sequencing
Molecule type: peptide
Concentration: concentration not given
Reading: direction not given
| tested on | observed | action | strain | setting | growth enrichment score |
| --- | --- | --- | --- | --- | --- |
| yeast with cyclin B3-Cln2 chimera | cell growth | binder | – | peptide tiling library | -0.246 |
| Saccharomyces cerevisiae | binding | – | cyclin E1-Cln2 fusion strain | peptide tiling library | 0.125 |
| Saccharomyces cerevisiae | binding | – | cyclin D3-Cln2 fusion strain | peptide tiling library | -0.127 |
| yeast with cyclin E2-Cln2 chimera | cell growth | binder | – | peptide tiling library | -0.459 |
| Saccharomyces cerevisiae | binding | – | cyclin E1-Cln2 fusion strain | tiling library, Cln2 subtracted | 0.125 |
| yeast with cyclin F-Cln2 chimera | cell growth | binder | – | peptide tiling library | -0.0959 |
| Saccharomyces cerevisiae | binding | – | cyclin D3-Cln2 fusion strain | tiling library, Cln2 subtracted | -0.127 |

Set 3
Structure (SMILES): COc1ccc2c(c[n+](C)c3c4cc5c(cc4ccc23)OCO5)c1OC
Observed: enzyme activity
Action: inhibitor
Concentration: 0.5 µM
Relative to: control
| target | remaining activity [%] |
| --- | --- |
| Mitogen-activated protein kinase kinase kinase 8 (MAP3K8, Homo sapiens, UniProt P41279) | 91.3 |
| Mitogen-activated protein kinase kinase kinase 2 (MAP3K2, Homo sapiens, UniProt Q9Y2U5) | 99.8 |
| Serine/threonine-protein kinase D1 (PRKD1, Homo sapiens, UniProt Q15139) | 100 |
| Homeodomain-interacting protein kinase 3 (HIPK3, Homo sapiens, UniProt Q9H422) | 96.6 |
| Protein-tyrosine kinase 2-beta (PTK2B, Homo sapiens, UniProt Q14289) | 92.3 |
| Cyclin-dependent kinase 2, with cyclin A (CDK2, Homo sapiens, UniProt P24941) | 85.1 |
| Calcium/calmodulin-dependent protein kinase type 1D (CAMK1D, Homo sapiens, UniProt Q8IU85) | 105 |
| Calcium/calmodulin-dependent protein kinase type 1G (CAMK1G, Homo sapiens, UniProt Q96NX5) | 100 |
| NT-3 growth factor receptor (NTRK3, Homo sapiens, UniProt Q16288) | 95.2 |
| Mitogen-activated protein kinase 10 (MAPK10, Homo sapiens, UniProt P53779) | 100 |
| Proto-oncogene tyrosine-protein kinase ROS (ROS1, Homo sapiens, UniProt P08922) | 119 |
| Myotonin-protein kinase (DMPK, Homo sapiens, UniProt Q09013) | 100 |
| G protein-coupled receptor kinase 5 (GRK5, Homo sapiens, UniProt P34947) | 110 |
| Cyclin-dependent kinase 7 (CDK7, Homo sapiens, UniProt P50613) | 91.9 |
| Casein kinase II subunit alpha' (CSNK2A2, Homo sapiens, UniProt P19784) | 89.7 |
| Serine/threonine-protein kinase Nek9 (NEK9, Homo sapiens, UniProt Q8TD19) | 97 |
| STE20-like serine/threonine-protein kinase (SLK, Homo sapiens, UniProt Q9H2G2) | 87.4 |

Further values, each from its own experiment
| SMILES | tested on | test | conditions | scale | endpoint | result |
| --- | --- | --- | --- | --- | --- | --- |
| CC(C)CC(=O)N1CCc2nc(-c3ccc(Br)cc3)nc(N(C)Cc3ccccc3)c2C1 | Calcium-dependent protein kinase 1 (CDPK1, Plasmodium falciparum, UniProt P62344) | cell-free assay, competition with immobilised ligand | 0.1 µM | – | remaining binding | 100% |
| CN[C@@H]1C[C@H]2O[C@@](C)([C@@H]1OC)n1c3ccccc3c3c4c(c5c6ccccc6n2c5c31)C(=O)NC4 | normal-adjacent organoid sample F | CellTiter-Glo | 1 µM, replicate mean | relative to: DMSO | viability | 0.4% |

Excerpt of the above (set 1):
| SMILES | viability [%] |
| --- | --- |
| CC(C)(C)NC[C@H](O)COc1nsnc1N1CCOCC1 | 101 |
| c1ccc2c(CC3=NCCN3)cccc2c1 | 98 |
| CCCCC(=O)O[C@H]1CC[C@H]2[C@@H]3CCc4cc(O)ccc4[C@H]3CC[C@]12C | 103 |
| CC(C(=O)O)c1ccc(-c2ccccc2)c(F)c1 (stereo not shown) | 101 |
| O=C1CN2Cc3c(ccc(Cl)c3Cl)N=C2N1 | 103 |
| CC(C)C[C@H](CN)CC(=O)O | 101 |
